Assay results pooled from the literature.
Parts stem from different laboratories: compare values within a part only.

Set 1 — technique: RNA Bind-n-Seq; form: RNA; sample: in vitro; concentration: 365 nM; reference: no-protein control; direction: higher = stronger binding
Target: RNA binding protein fox-1 homolog 2, RRM domain, GST-SBP tag (RBFOX2, Homo sapiens, UniProt O43251-10, residues 100-194)
Setting: natural RNA segment, single round, ends assumed
Shared flanks, not repeated: GGGAGUUCUACAGUCCGACGAUC … UGGAAUUCUCGGGUGCCAA
Residues (chain): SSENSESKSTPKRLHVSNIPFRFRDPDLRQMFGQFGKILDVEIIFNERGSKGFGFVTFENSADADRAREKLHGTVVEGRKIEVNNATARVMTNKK
| Oligonucleotide | RBNS enrichment (R) |
| --- | --- |
| UUUAAGAGAGAGUCUCUGGCAAGACCCCCCUCAUCAGUUCUAAUCAUUUUAGAAGUAGACAGAAAAAAAUAUCUAAGCUCAGGUAAUACUGAAAAAGCCAAAAUGUUUUG | 0.425 |
| GAGAGAAGAUUUCAGACUUCUUUUUCUCAGAAAGCAUGAAGAAUUUAUGAAGUAUGGAAAAGAAGCCCUUACAUAUUCCAGAUGUGUGCAGCAGGGGGCACUGUCCCAGC | 3.18 |
| AUAUACAAGCCAAAGUGGCAUGUUUUGUGCAUUUGUAAAUGCUGUAUUGGAUAGACUAGCCCCCCCCCCGCCUUUGUUAAAUAGUAUGGCUGUGCUUAAAAGGUUGCAUA | 23.4 |
| CAGAUAUAUAUUAAAAACAAAUAAUCGAGGUACCAGAGCUGCGUCUGUGGCACCAGCUAGCUGCAGGUGCAGGGGAUGGCGGGAGUGAGGCUGUGUCUGCGGAUGGCUGG | 0.809 |
| UCCCCAGAUGCUGCCAGGCAGCCCCUCCCCAAGCCUCAAAGAAGCAUUUGCUGAGGAUGGAGAGGCAGGGGAGGGAGGCGGGAGGCCGUCACUGGAGUGGCGUCUGCAGC | 0.655 |
| AGUCAUGGAAAUCCCUGGAAGGUUCACACAGCUCUCAUCCAAAGCCCUGGCCUUGCUAUGAGGGAAAGAUUGAAUAAGCAGCGCACAAGGCAUUCUGGUGCACUAACUUG | 0.289 |
| AGAACAGAAGAAUCUGACAGGCACUAAUUGGAUACUGUGGCUUGUUUGGAUAGAAAUUCUGAAUGGAGUGGAGGAAAGGAGAAAUGCCCUCAUCACUGAGGAUCAUGAAA | 0.45 |
| AGGAGGAGACUGUAGCAAGUAAGGCAUAAGAACACUUGCUCUUAUACCCUAGUGGUGGCGGUCAAGCUAACAAGUGUGAAAAUGCCUUUGGCAUUUUUAAAAAAGUGCAA | 0.303 |
| CUUGUGUUCAGUUAUAUUCUCUCUCUCUCUCAUUUCAAAUACUGCUUGACAAUUCGAAAAUGAACCAAUGAUGUGCUGUGGAAUGUGAUGGUUGUCUUCAUAUAGAGUCA | 1.91 |
| ACAUUCAGGCCAGACACUUGAAAGUGACUGUUUGUUCUUAUAGUGUCCCCAAGUCUGCUAAUUAAGGGCCCACUUCUACUUUCUAGUCGCACUUCUGAAAUUCCAUAUUU | 0.367 |
| AAACAAAUUUAAAGGGCCUGUUAAUUCUUAUAUUUUUCUUUACUAAUCAUUUUGGAUUUUUUUCUUUGAAUUAUUGGCAGGGAAUAUACUUAUGUAUGGAAGAUUACUGC | 1.19 |
| UGAAAUCCUUUCUAAAUUGCAUGAAUAGGCUCUGCUAACGUGAUGAGACAAACUGAAAAUUAUUGCAAGCAUUGACUAUAAUUAUGCAGUACGUUCUCAGGAUGCAUCCA | 29.4 |

Set 2 — technique: competition protein-binding microarray; form: double-stranded DNA, one strand shown; sample: in vitro; concentration: 2 µM; together with: Cbf1 competitor, 0.05 µM; direction: higher = stronger binding; shared flanks, not repeated: … GTCTTGATTCGCTTGACGCTGCTG
Target: Phosphate system positive regulatory protein PHO4, full length, GST-tagged (PHO4, Saccharomyces cerevisiae, UniProt P07270, residues 1-312)
Setting: whole 60-bp probe, lowest competitor level
Construct (chain): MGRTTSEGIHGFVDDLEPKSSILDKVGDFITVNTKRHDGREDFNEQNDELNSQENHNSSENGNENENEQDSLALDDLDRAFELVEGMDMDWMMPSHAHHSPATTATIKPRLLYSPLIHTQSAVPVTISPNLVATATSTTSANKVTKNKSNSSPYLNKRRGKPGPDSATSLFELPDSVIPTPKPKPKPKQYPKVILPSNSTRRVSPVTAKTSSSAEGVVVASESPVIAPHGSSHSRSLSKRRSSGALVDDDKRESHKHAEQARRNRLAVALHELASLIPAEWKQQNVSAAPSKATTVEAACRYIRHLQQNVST
| Oligonucleotide | fluorescence intensity [a.u.] |
| --- | --- |
| AAAGCGGTAATTTGCTAAGTGGGTGCAGATATCTAT | 3820 |
| CATACCATCTTTAGCGACGTGTGGAAGACCCGATTC | 5050 |
| CTAACGAAGGTTTGCCAAGTGGGTGACAAGCCAAGT | 4090 |
| CTAACGAAGGTTTGTTTCGTGGGTGACAAGCCAAGT | 4650 |
| CAGAAGGAGAGACTGAACGTGTACTTCAACGAGGCA | 9770 |
| ACTCCCTGCGCCTATGCCGTGCCAGAGCAAATAAAG | 6240 |
| CATACCCAACCTTGCGCCGTGGGTGAAGATATTTGT | 5660 |
| CTTCTGTAAATTTTTCACGTGGCATGAAGCGCCCCG | 13300 |
| GTCTTGTCTCATTGGTGGGTGGGTGTCCCCACTTCA | 4630 |
| AGAAAAACCAGCCATCGCGTGTGTTTGGAGAGCTGA | 6110 |
| CTAACGAAGGTTTGGAGCGTGGGTGACAAGCCAAGT | 8170 |
| CTGAGCTTAATAAGCACCGTGCGATTACCTTCGTTT | 6940 |
| CATACCCAACCTTGCTGCGTGGGTGAAGATATTTGT | 9780 |
| TGAAGACTTTGCATCTACGTGTCGGACAAGCTGCCC | 5330 |
| CGTCCTAGTGATTGTCACCACACTTCCATGAGGAAG | 6040 |
| AAATGGGCAGAATGCCACATGTTAGCAATGCAACGA | 11100 |
| GTCTTGTCTCATTTTCACGTGTCATTCCCCACTTCA | 11900 |
| CTTCTGTAAATTTGTTGTGTGGGTGGACGCGCCCCG | 4750 |

Set 3 — technique: RNA Bind-n-Seq; form: RNA; sample: in vitro; concentration: 100 nM; reference: input RNA pool; direction: higher = stronger binding
Target: RING finger protein unkempt homolog, zinc fingers 1-6, SBP tag (UNK, Homo sapiens, UniProt Q9C0B0, residues 30-357)
UniProt Q9C0B0, sequence (30-357, looked up): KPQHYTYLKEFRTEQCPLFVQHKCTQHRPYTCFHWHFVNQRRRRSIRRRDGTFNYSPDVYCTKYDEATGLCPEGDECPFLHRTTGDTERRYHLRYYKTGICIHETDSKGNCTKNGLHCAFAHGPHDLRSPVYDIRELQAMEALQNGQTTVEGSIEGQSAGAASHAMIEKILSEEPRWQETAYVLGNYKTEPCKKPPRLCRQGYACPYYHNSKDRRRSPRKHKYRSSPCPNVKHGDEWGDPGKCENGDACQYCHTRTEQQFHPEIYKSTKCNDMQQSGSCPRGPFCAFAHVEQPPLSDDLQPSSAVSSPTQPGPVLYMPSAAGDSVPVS
Setting: RNA with constant flanks, vertebrate orthologous sites, ends assumed
Shared flanks, not repeated: GGGAGUUCUACAGUCCGACGAUC … CAACAGAGGAUUGAGCAUCA
| Oligonucleotide | bound/input enrichment |
| --- | --- |
| ACUGUUGUUAAGCACUGUGUUGCAGACCGUGUCUGACUUAGUGUAACCUAGGAGAUUUUAUAGUUUUAUUUUAAUGAAAUUCUGAUUGACGCAGAGCAGUGGGGAGAACAGUCCCUUUUA | 2.73 ratio |
| CCGCCGAUUCACUCAUCGGGAGAGCGGCACACAUAGCUGUUCUGGAUUCGGAAAUAUUUUUAGAGAAAUUCUUUCUGGUUGCUGCCCUCAAAUAUUUCCAGUAGAAUAAAAGCAUUGUUA | 0.416 ratio |
| UUUUAUUGAUCAGGUCUGUAAAUGUGUACUAAAAAAAUCAGAAUUUAUUUAUAAACAGAAUAGUUUAUUUAAAGAGAAGGUCUUUUCCUUAUUGAUAUCAUGGUAUGCAUUAAUUCCAUU | 0.175 ratio |
| CCGAAAGGCCAAAUUCCCUCCUCCCUUCUACUGCUUCUACCAACUGGAAGCACAGAAAACUAGAAUUUCAUUUAUUUUGUUUUUAAAAAAUAUAUGUUGAUUUCUUGUAACAUCCAAUAG | 0.461 ratio |
| UAUGGGAAACCUCGCAGAGUUGAAAUAAUGGAAGAGGAAAGUGAAUAGUAAUCUUCAUUUUAGUAUUUAUGCUUAGAUGUGAAAAUAAAUGUUAUUUGUUGAUCAUUUCUAUAAUCCAGA | 0.636 ratio |
| GUUGUGACCCAUUUAACAUACACAAAAAAUUAGCCAAAAAAAAUUUGCAUGUAAUUGACUUAGAUGAUGCCACUUUUCUGAGUGCAAAAUUCGGAAGACAGCUUGUACCUGGUUGGAAGC | 1.92 ratio |
| GCUAUUAAUGCACUGUAUUCCAGGCAUCGUCUGAAUUUUAGUGUAAUCUAGGAGAUUUUAUAAUUUUAUUUUAAUGAAGUAUGGAUUGAUGCAGAGUUGUUAGCAGUCUGUAGUCUUUUA | 1.09 ratio |
| AGUAGUUUUAAGCUUGUUUGCACAGUUCUUUUUUUCCAUUGGAAAUGGAAUCCAUUGCCUUAGGUCUUUUUAAAUAGUGUAUUAUUAUCGUUGGGGCUGGCUCAAUGCUUGAAAACCAGU | 3.19 ratio |
| GAUUUGGACCUUGGAGCUGAACCAGGGAGCUAGCAAAAGUAAAGCAGACUUGUAAAAUUAUAGCCAUAUGCAGCUGCACAACAACAGUACUACCACUAGCAGCUGUGUUAAAGUAUUUAU | 0.686 ratio |
| CUCUAUGGGCCUCGCAGAGUUGAAAUAAUGGAAGAGGAAAGUGAACAGUAAUCUUCAUUUUAGUAUUUAUGCUUAGGUGUGAAAUAAAUGUUAUUUGUUGAUCAUUUCUAUAAUCCAGAG | 0.457 ratio |
| AUAUAAGAACUCUUACAGUCUUAGAUGUUAAAAAAUAUAUAUCUGAAUUGUAAGAGUUAGCACAGGUGUUUUUGUUUUUUUUUUUUAAGCACUUGUUUUGAGUACAAGUCAUUUCUGAAA | 0.404 ratio |

Set 4 — technique: protein-binding microarray; form: double-stranded DNA, one strand shown; sample: in vitro; concentration: not given; direction: higher = stronger binding
Target: Protein max, full length (MAX, Homo sapiens, UniProt P61244-2, residues 1-151)
Setting: k-mer, scored over probes, only values ≥0.25
| Oligonucleotide | E-score |
| --- | --- |
| ATGAGATG | 0.267 |
| GCATGAGC | 0.324 |
| CTCATGCC | 0.342 |
| GGCATCAC | 0.27 |
| AGCATATG | 0.331 |
| CACGGGGG | 0.396 |
| CCTGCTCC | 0.259 |
| CAAACACG | 0.37 |
| CCCCACCC | 0.269 |
| ATGACCAC | 0.293 |
| CAATGCGG | 0.29 |
| AACGTGTG | 0.393 |
| ATATCACG | 0.309 |
| AAAATGTG | 0.339 |
| CCACGCAG | 0.289 |
| GTGCCGCA | 0.317 |
| CGCATGCA | 0.424 |
| CGCACACG | 0.4 |
| CCGCGAGG | 0.267 |
| ACGAGGAC | 0.39 |
| CTCGTGGC | 0.448 |

Set 5 — technique: universal PBM; form: double-stranded DNA, one strand shown; sample: in vitro; concentration: 600 nM; direction: higher = stronger binding
Target: Sal-like protein 4, full length isoform A (SALL4, Homo sapiens, UniProt Q9UJQ4, residues 1-1053)
UniProt Q9UJQ4, sequence (whole entry, looked up): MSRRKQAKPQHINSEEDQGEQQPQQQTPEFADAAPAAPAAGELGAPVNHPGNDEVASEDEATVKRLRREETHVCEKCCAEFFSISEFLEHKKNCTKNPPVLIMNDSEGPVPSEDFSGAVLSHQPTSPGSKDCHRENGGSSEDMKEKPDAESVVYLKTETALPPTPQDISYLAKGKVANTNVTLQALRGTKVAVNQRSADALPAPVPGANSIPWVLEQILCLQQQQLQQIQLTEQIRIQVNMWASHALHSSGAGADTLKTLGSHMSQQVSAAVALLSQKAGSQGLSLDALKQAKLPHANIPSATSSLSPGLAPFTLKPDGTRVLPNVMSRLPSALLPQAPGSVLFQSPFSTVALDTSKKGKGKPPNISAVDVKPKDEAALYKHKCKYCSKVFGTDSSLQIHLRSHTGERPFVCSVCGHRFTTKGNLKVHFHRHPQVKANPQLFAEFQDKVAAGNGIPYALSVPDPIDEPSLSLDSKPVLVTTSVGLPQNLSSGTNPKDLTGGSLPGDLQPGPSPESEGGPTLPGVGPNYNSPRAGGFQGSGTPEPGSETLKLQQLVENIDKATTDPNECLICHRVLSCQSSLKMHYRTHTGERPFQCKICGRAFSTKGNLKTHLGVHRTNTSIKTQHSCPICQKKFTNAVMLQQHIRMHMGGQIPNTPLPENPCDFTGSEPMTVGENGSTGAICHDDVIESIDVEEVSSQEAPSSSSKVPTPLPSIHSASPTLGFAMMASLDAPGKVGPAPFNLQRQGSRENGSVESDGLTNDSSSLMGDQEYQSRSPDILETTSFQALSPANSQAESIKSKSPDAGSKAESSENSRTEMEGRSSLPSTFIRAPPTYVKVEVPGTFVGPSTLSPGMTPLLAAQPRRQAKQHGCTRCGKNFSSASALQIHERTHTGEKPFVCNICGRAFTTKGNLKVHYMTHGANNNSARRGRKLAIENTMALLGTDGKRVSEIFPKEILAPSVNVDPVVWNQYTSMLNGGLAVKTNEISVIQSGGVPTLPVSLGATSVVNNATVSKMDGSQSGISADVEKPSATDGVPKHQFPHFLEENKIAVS
Setting: 8-mer, flanks averaged, mean of replicates
| Oligonucleotide | E-score |
| --- | --- |
| ACCGTTCA | -0.141 |
| ATAGTTTC | 0.205 |
| AATGGTCA | 0.138 |
| AGCGGGCG | -0.327 |
| GGAGGGAA | -0.188 |
| CGGGCCCG | -0.202 |
| CTAACTGC | -0.179 |
| ATTGACAA | 0.193 |
| CTGCGTGA | -0.154 |
| ACCTTCTA | 0.0678 |
| GGCATCCC | -0.372 |
| CCACCTAG | -0.242 |
| TGGTAACA | 0.117 |
| GAATCATC | 0.148 |
| TATACTCA | 0.249 |
| GCAATAAA | 0.307 |
| TCATACCA | 0.217 |
| AATTTTGA | 0.303 |
| GATCAAAA | 0.167 |
| CATGAGTC | 0.11 |
| GTTTGCCA | -0.00023 |
| ATCCGGTA | -0.19 |
| CACGCTGG | -0.269 |
| AGGAGACT | -0.111 |
| ATCAAATC | 0.25 |

A few entries again (set 1):
| Oligonucleotide | RBNS enrichment (R) |
| --- | --- |
| CAGAUAUAUAUUAAAAACAAAUAAUCGAGGUACCAGAGCUGCGUCUGUGGCACCAGCUAGCUGCAGGUGCAGGGGAUGGCGGGAGUGAGGCUGUGUCUGCGGAUGGCUGG | 0.809 |
| UCCCCAGAUGCUGCCAGGCAGCCCCUCCCCAAGCCUCAAAGAAGCAUUUGCUGAGGAUGGAGAGGCAGGGGAGGGAGGCGGGAGGCCGUCACUGGAGUGGCGUCUGCAGC | 0.655 |
| AGUCAUGGAAAUCCCUGGAAGGUUCACACAGCUCUCAUCCAAAGCCCUGGCCUUGCUAUGAGGGAAAGAUUGAAUAAGCAGCGCACAAGGCAUUCUGGUGCACUAACUUG | 0.289 |
| AGAACAGAAGAAUCUGACAGGCACUAAUUGGAUACUGUGGCUUGUUUGGAUAGAAAUUCUGAAUGGAGUGGAGGAAAGGAGAAAUGCCCUCAUCACUGAGGAUCAUGAAA | 0.45 |
| AGGAGGAGACUGUAGCAAGUAAGGCAUAAGAACACUUGCUCUUAUACCCUAGUGGUGGCGGUCAAGCUAACAAGUGUGAAAAUGCCUUUGGCAUUUUUAAAAAAGUGCAA | 0.303 |
| CUUGUGUUCAGUUAUAUUCUCUCUCUCUCUCAUUUCAAAUACUGCUUGACAAUUCGAAAAUGAACCAAUGAUGUGCUGUGGAAUGUGAUGGUUGUCUUCAUAUAGAGUCA | 1.91 |
| ACAUUCAGGCCAGACACUUGAAAGUGACUGUUUGUUCUUAUAGUGUCCCCAAGUCUGCUAAUUAAGGGCCCACUUCUACUUUCUAGUCGCACUUCUGAAAUUCCAUAUUU | 0.367 |
| AAACAAAUUUAAAGGGCCUGUUAAUUCUUAUAUUUUUCUUUACUAAUCAUUUUGGAUUUUUUUCUUUGAAUUAUUGGCAGGGAAUAUACUUAUGUAUGGAAGAUUACUGC | 1.19 |
